Published values from different studies.
Compare with care: the assays were run in different laboratories. Several values in a cell are separate wells, animals, samples, runs or records. Numbers after ± are the reported error.

SMILES | test | test system | setting | measurement | result
O=S(=O)(c1ccc(-c2ccc3nccc(Nc4ccncn4)c3c2)cc1)N1CCOCC1 | – | female BALB/c mice, plasma | intraperitoneal, 10 mg/kg, 0.25 h | plasma concentration | 4.72 µg/mL and 5.09 µg/mL
O=Cc1cc2c(cc1F)C(=O)N(C1CCC(=O)NC1=O)C2 (stereo not shown) | – | CD-1 mice | intravenous, 1 mg/kg, 2 h | plasma concentration | not detected
Cc1ccc(CNC(=O)c2cc(/C=C/C(=O)O)cc(-c3ccc4ncnn4c3)c2)cc1 | – | male Balb/C mice, plasma | oral, 10 mg/kg | plasma detection time | ≤ 5 min
Cc1ccc(NC(=O)c2ccc(CN3CCN(C)CC3)cc2)cc1Nc1nccc(-c2cncc(-c3oncc3C)c2)n1 | – | male C57BL/6 mice, plasma | oral, 100 mg/kg once daily, 7 days | plasma accumulation ratio | 1.5 to 2
CC1(C)C=C(CNc2ccc3c(c2)Cc2cc(Br)ccc2-3)C(C)(C)N1[O] | UPLC-MS/MS | wild-type mice | ip, 10 mg/kg, 60 min | plasma to brain ratio | 0.47 ± 0.05
O=[N+]([O-])c1ccc(-c2ccc(O)cc2)c2cccnc12 | – | male ICR mice, plasma | intravenous, 1 mg/kg, 0.5 h | plasma concentration | 0.0182 µg/mL
COC(=O)/C=C/c1cc(C(=O)NCc2ccc(C)cc2)cc(-c2ccc3ncnn3c2)c1 | – | Balb/C mice, plasma | oral, 10 mg/kg, 1 h | plasma exposure | not detected
CC[C@H](C)[C@H](NC(=O)[C@H](Cc1ccccc1)NC(=O)[C@H](CCC(=O)O)NC(=O)[C@H](CCCCNC(=O)COCCOCCNC(=O)COCCOCCNC(=O)CC[C@H](NC(=O)CCCCCCCCCCCCCCCCC(=O)O)C(=O)O)NC(=O)[C@H](C)NC(=O)[C@H](C)NC(=O)[C@H](CCC(N)=O)NC(=O)CNC(=O)[C@H](CCC(=O)O)NC(=O)[C@H](CC(C)C)NC(=O)[C@H](Cc1ccc(O)cc1)NC(=O)[C@H](CO)NC(=O)[C@H](CO)NC(=O)[C@@H](NC(=O)[C@H](CC(=O)O)NC(=O)[C@H](CO)NC(=O)[C@@H](NC(=O)[C@H](Cc1ccccc1)NC(=O)[C@@H](NC(=O)CNC(=O)[C@H](CCC(=O)O)NC(=O)C(C)(C)NC(=O)[C@@H](N)Cc1cnc[nH]1)[C@@H](C)O)[C@@H](C)O)C(C)C)C(=O)N[C@@H](C)C(=O)N[C@@H](Cc1c[nH]c2ccccc12)C(=O)N[C@@H](CC(C)C)C(=O)N[C@H](C(=O)N[C@@H](CCCNC(=N)N)C(=O)NCC(=O)N[C@@H](CCCNC(=N)N)C(=O)NCC(=O)O)C(C)C | – | DIO C57BL/6J mice | dose not given, day 28, with: GLP-1R agonist co-treatment | plasma lipase | increased
Cc1cc2sc(N)nc2c2cccnc12 | LC-MS | BALB/c mice, female | intraperitoneal, 30 mg/kg, 1 h | plasma concentration | 1.49 ± 0.19 µg/mL
CC[C@H](C)[C@H](NC(=O)[C@H](CCC(=O)O)NC(=O)[C@H](CO)NC(=O)[C@@H](NC(=O)[C@@H](N)CO)C(C)C)C(=O)N[C@@H](CCC(N)=O)C(=O)N[C@@H](CC(C)C)C(=O)N[C@@H](CCSC)C(=O)N[C@@H](Cc1cnc[nH]1)C(=O)N[C@@H](CC(N)=O)C(=O)N[C@@H](CC(C)C)C(=O)NCC(=O)N[C@@H](CCCCN)C(=O)N[C@@H](Cc1cnc[nH]1)C(=O)N[C@@H](CC(C)C)C(=O)N[C@@H](CC(N)=O)C(=O)N[C@@H](CO)C(=O)N[C@@H](CCSC)C(=O)N[C@@H](CCC(=O)O)C(=O)N[C@@H](CCCNC(=N)N)C(=O)N[C@H](C(=O)N[C@@H](CCC(=O)O)C(=O)N[C@@H](Cc1c[nH]c2ccccc12)C(=O)N[C@@H](CC(C)C)C(=O)N[C@@H](CCCNC(=N)N)C(=O)N[C@@H](CCCCN)C(=O)N[C@@H](CCCCN)C(=O)N[C@@H](CC(C)C)C(=O)N[C@@H](CCC(N)=O)C(=O)N[C@@H](CC(=O)O)C(=O)N[C@H](C(=O)N[C@@H](Cc1cnc[nH]1)C(=O)N[C@@H](CC(N)=O)C(=O)N[C@@H](Cc1ccccc1)C(N)=O)C(C)C)C(C)C | ELISA | female CD-1 mice, blood plasma | subcutaneous, 10 nmol/kg, 0.167 h | plasma concentration | 0.651 nM

Repeated from above:
SMILES | test | test system | setting | measurement | result
O=Cc1cc2c(cc1F)C(=O)N(C1CCC(=O)NC1=O)C2 (stereo not shown) | – | CD-1 mice | intravenous, 1 mg/kg, 2 h | plasma concentration | not detected
